Assay results gathered from unrelated publications.
Lines come from different studies, so protocols differ. Values joined by “and” are separate records of one study, mostly repeats; a detail may differ. ± gives the spread as reported.
PARP1: Poly [ADP-ribose] polymerase 1 (PARP1, Homo sapiens, UniProt P09874)
UniProt P09874, sequence (whole entry, looked up): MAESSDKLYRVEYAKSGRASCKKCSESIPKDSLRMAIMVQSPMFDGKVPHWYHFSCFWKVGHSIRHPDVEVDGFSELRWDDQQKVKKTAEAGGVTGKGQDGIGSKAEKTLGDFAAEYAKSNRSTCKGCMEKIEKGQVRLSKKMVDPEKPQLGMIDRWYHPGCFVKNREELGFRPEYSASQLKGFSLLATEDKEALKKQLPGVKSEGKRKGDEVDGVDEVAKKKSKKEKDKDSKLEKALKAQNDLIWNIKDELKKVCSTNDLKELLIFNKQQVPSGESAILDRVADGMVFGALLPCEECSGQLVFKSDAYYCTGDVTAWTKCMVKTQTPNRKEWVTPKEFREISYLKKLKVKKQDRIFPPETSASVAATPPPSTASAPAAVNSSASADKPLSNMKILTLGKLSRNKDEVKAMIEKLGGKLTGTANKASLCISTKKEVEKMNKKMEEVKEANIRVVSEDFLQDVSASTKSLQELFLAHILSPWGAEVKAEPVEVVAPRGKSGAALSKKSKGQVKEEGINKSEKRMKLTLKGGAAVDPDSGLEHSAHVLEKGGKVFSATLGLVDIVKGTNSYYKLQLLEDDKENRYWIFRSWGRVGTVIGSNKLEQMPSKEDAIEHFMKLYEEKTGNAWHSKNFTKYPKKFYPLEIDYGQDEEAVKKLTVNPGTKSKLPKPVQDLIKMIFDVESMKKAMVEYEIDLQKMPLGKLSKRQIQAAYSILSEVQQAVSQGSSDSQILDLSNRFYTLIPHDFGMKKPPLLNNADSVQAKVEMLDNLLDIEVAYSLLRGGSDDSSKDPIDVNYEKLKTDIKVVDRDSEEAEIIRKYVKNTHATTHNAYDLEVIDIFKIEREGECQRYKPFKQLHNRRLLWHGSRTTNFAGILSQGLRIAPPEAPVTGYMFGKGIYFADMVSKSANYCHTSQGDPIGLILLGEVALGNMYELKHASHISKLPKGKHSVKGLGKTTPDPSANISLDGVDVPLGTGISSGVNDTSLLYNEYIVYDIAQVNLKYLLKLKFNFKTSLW
FAAH: Fatty-acid amide hydrolase 1 (FAAH, Homo sapiens, UniProt O00519)
UniProt O00519, sequence (whole entry, looked up): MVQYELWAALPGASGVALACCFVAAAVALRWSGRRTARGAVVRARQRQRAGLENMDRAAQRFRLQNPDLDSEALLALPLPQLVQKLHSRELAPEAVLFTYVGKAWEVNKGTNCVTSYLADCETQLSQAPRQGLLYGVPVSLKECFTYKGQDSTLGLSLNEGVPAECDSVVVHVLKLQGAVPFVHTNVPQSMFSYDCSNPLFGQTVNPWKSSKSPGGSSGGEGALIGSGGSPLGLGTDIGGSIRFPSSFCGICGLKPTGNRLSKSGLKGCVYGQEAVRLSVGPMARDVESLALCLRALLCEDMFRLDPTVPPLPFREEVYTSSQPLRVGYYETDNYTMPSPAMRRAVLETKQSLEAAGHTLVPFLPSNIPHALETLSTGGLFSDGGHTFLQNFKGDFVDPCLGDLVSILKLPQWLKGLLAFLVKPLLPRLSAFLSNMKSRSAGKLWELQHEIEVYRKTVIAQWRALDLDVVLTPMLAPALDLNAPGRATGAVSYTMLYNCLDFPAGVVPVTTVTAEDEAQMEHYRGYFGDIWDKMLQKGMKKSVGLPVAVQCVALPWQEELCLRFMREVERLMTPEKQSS
CXCR4: C-X-C chemokine receptor type 4 (CXCR4, Homo sapiens, UniProt P61073)
UniProt P61073, sequence (whole entry, looked up): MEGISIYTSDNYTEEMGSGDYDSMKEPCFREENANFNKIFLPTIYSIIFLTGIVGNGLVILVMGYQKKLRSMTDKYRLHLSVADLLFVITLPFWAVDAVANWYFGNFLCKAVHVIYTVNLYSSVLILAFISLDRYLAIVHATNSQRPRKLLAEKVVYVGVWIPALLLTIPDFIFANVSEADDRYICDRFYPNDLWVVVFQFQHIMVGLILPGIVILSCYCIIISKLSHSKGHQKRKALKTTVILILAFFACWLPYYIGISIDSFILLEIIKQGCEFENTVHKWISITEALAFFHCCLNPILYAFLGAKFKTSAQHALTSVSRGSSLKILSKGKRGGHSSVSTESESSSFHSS
LDHB: L-lactate dehydrogenase B chain (LDHB, Homo sapiens, UniProt P07195)
CYP1A1: Cytochrome P450 1A1 (CYP1A1, Homo sapiens, UniProt P04798)
UniProt P04798, sequence (whole entry, looked up): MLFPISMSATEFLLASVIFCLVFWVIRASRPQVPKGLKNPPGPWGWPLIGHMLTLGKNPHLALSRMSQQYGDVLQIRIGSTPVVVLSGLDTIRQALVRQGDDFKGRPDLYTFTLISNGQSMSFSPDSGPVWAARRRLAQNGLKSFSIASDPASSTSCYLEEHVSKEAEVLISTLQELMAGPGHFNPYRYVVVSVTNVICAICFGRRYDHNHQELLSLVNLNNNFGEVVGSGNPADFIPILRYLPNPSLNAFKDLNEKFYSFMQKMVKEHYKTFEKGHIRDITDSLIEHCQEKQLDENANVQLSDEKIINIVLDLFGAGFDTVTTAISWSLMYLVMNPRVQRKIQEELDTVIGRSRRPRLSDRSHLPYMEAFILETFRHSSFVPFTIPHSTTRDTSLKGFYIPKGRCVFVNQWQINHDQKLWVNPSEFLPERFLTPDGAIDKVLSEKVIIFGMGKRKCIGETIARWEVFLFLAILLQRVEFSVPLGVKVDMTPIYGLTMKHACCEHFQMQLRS
PSMB5: Proteasome Macropain subunit MB1 (PSMB5, Homo sapiens, UniProt P28074)
UniProt P28074, sequence (whole entry, looked up): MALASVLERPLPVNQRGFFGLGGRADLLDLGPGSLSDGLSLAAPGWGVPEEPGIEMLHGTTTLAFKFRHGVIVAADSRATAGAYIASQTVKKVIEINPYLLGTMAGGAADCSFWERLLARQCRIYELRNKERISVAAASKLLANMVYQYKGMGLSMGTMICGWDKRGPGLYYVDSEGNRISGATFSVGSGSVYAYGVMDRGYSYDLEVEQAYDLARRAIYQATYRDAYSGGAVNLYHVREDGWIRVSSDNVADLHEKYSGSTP
CDC7 with DBF4: Cell division cycle 7-related protein kinase, with DBF4 (CDC7, Homo sapiens, UniProt O00311)
UniProt O00311, sequence (whole entry, looked up): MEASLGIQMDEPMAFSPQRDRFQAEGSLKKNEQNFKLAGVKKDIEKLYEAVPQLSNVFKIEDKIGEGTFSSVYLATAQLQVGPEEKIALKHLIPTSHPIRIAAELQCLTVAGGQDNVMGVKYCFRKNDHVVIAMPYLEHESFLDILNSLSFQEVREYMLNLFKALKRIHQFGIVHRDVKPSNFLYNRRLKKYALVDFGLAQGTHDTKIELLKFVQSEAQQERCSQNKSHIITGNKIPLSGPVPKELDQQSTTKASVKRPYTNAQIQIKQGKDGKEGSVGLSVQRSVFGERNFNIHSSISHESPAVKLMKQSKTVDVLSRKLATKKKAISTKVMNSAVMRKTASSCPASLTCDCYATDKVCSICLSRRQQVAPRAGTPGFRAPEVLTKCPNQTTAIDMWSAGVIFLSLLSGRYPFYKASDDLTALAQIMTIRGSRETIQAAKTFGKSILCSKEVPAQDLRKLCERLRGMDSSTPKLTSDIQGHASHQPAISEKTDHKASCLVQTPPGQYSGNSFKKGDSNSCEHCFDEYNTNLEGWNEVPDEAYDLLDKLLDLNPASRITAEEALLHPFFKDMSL
UniProt P49841, sequence (whole entry, looked up): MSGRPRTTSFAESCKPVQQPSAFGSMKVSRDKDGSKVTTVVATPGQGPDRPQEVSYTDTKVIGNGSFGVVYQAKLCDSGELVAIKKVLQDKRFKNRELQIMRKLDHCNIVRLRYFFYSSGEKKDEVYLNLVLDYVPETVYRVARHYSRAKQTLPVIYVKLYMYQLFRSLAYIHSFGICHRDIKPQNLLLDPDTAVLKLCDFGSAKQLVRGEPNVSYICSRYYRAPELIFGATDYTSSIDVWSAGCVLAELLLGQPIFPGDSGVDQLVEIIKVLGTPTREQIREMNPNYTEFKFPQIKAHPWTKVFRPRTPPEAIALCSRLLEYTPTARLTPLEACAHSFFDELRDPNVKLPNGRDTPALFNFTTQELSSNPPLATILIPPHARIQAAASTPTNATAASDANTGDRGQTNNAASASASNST
UniProt Q86U42, sequence (whole entry, looked up): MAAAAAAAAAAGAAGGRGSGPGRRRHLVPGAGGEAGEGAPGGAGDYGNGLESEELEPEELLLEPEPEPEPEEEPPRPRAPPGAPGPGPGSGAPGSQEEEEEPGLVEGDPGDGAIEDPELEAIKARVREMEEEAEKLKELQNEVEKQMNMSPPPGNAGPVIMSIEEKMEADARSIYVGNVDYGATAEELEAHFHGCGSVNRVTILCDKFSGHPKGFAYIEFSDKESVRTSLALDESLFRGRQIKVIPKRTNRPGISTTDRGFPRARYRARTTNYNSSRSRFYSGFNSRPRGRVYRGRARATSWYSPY
UniProt Q9NTG7, sequence (whole entry, looked up): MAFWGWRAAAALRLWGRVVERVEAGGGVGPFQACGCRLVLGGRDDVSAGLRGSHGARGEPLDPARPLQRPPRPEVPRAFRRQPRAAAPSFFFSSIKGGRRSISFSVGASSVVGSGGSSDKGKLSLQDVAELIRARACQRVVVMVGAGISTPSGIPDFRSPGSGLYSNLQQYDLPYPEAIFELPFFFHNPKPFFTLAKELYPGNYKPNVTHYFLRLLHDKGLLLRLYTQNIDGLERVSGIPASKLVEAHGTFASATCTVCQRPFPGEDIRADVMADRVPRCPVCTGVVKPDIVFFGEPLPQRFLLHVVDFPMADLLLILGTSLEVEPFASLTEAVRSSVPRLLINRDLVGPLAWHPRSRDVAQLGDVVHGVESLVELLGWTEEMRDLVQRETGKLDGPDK
UniProt P32745, sequence (whole entry, looked up): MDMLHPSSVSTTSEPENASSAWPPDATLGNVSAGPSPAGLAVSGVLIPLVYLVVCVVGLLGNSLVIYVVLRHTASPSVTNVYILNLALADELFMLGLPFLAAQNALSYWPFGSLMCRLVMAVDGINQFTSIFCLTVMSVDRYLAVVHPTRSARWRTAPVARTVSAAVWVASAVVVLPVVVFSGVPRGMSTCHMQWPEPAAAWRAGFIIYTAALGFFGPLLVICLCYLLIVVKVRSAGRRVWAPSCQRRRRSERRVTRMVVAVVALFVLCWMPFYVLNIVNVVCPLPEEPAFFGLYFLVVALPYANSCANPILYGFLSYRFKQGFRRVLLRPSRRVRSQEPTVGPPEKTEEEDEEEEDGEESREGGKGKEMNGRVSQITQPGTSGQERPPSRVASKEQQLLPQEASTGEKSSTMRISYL

Structure (SMILES) | target | assay | test system | setting | IC50
NC(=O)c1cccc2c1OCC(=O)N2 | PARP1 |  |  |  | 750 ± 90 nM
COC(=O)[C@H](C)NC(=O)[C@H](C)NC(=O)[C@H](CCCCNC(C)=S)NC(=O)c1ccc([N+](=O)[O-])cc1 | SIRT3 (Homo sapiens, UniProt Q9NTG7) | enzyme activity, inhibitor |  |  | 272000 nM and > 100000 nM
CN1CCN(C2=Nc3ccccc3Oc3ccc(Cl)cc32)CC1 | ABCC1 (Homo sapiens, UniProt P33527) | efflux, inhibitor | SupT1-Vin overexpressing ABCC1 | with: SYTO 13 100 nM | 16200 ± 4800 nM
CC(=O)c1cc(C(=O)N[C@@H](C)Cn2ccc(-c3ccc(C#N)c(Cl)c3)n2)[nH]n1 | SLC10A1 (Homo sapiens, UniProt Q14973) | transporter uptake, inhibitor |  |  | > 10000 nM
CCCOC(=O)c1ccc(O)cc1 | FAAH | enzyme activity, inhibitor, fluorimetric |  | 60 min preincubation, recombinant enzyme, with: OMP substrate 50 µM | 17100 ± 1800 nM
O=C(O)c1ccc(OCCCc2ccc(OCCCCOC3CCCCC3)cc2)c(C(=O)NC2CCCC(C(=O)O)C2)c1 (stereo not shown) | Uracil nucleotide/cysteinyl leukotriene receptor, long isoform (GPR17, Homo sapiens, UniProt Q13304) | beta-arrestin recruitment, antagonist, PathHunter | U2OS |  | 14600 nM
CC[C@H](C(=O)O)[C@H]1CCN[C@@H]1C(=O)O | AMPA receptor, rat | binding | cortical synaptosomes | with: [3H]-AMPA | > 100000 nM
O=C(OCc1ccccc1)c1ccc([N+](=O)[O-])cc1 | FAAH | enzyme activity, inhibitor, fluorescence |  | with preincubation | > 100000 nM
c1cc(CNCCCNC2CCCCC2)nc(CNc2nc(N3CCNCC3)nc3[nH]cnc23)c1 | CXCR4 | ligand displacement, radioligand |  | cell membranes | 32.9 nM
COC(=O)C(Cc1ccc(CCCC(=O)NCCC(=O)Nc2ccc3nc(C)sc3c2)cc1)C(=O)O (stereo not shown) | LDHB | inhibitor, NADH fluorescence |  | NADH competition, with: 1440 µM pyruvate, 40 µM NADH | 26900 ± 3000 nM
C#Cc1ccc2c(C(F)(F)F)cc(=O)oc2c1 | CYP1A1 | enzyme activity, inhibitor, fluorescence |  | 6 min, pH 7.6 | 14300 nM
CC(=O)NNS(=O)(=O)c1ccc2c(c1)n(C)c(=O)c(=O)n2C | DPP4 (Homo sapiens, UniProt P27487) | enzyme activity, inhibitor, fluorescence |  |  | 0.085 nM
Cc1ncc([N+](=O)[O-])n1CC(C)O (stereo not shown) | Cytochrome P450 1A2 (CYP1A2, Homo sapiens, UniProt P05177) | enzyme activity, inhibitor | human liver microsomes | 30 min, with: phenacetin | > 500000 nM
C#Cc1ccc2c(C)c(-c3ccccc3)c(=O)oc2c1 | CYP1A1 | enzyme activity, inhibitor, fluorescence |  | 6 min, pH 7.6 | 4480 nM
CC(C)C1=CC[C@H]2C(=C1)CC[C@@H]1[C@]2(C)CCC[C@@]1(C)C(=O)O | CA9 (Homo sapiens, UniProt Q16790) | enzyme activity, inhibitor, stopped-flow |  | pH 7.4 | 148 nM
NC(=O)[C@H]1CCN(c2ncnc(N)c2F)C[C@@H]1N1CCC[C@@H](Nc2cc(Cl)cc(C(F)(F)F)c2)C1=O | BTK (Homo sapiens, UniProt Q06187) | phosphorylation, inhibitor | human whole blood | 0.5 h, healthy donors, range limit | 2.8 to 216 nM
CCCN1CCC(c2cccc(S(C)(=O)=O)c2)CC1 | Cytochrome P450 2D6 (CYP2D6, Homo sapiens, UniProt P10635) | enzyme activity, inhibitor | human, liver microsomes | 4 h, pH 7.4, with preincubation | 2800 nM
COc1ccc(Cn2cc(CNC(=O)OCc3cn(Cc4cccc(OC)c4)nn3)nn2)cc1 | FAAH | enzyme activity, inhibitor, fluorescence |  | cell membranes | 9.4 nM
COc1ccc(-c2cc(=O)c3c(OC)c([C@@H]4O[C@H](C(=O)NCC(F)(F)F)[C@@H](O)[C@H](O)[C@H]4O)c(OC)cc3o2)cc1OC | GSK3B (Homo sapiens, UniProt P49841) | enzyme activity, inhibitor, ADP detection |  |  | < 20000 nM and 19300 nM
NC(=O)c1cc(N)cc2c1OCCO2 | PARP1 |  |  |  | > 5000 nM
Cc1ccc(NC2=CC(=O)c3sc(C)nc3C2=O)cc1 | PSMB5 | enzyme activity |  | with: Suc-LLVY-AMC substrate, ATP | > 30000 nM
COc1cccc2cc(-c3nnc(SCC(=O)Nc4ccc(Cl)c(Cl)c4)n3-c3ccccc3)oc12 | fungal tyrosinase | enzyme activity, inhibitor, dopachrome absorbance |  | pH 6.8, 37 °C, with: L-tyrosine substrate | 1730 ± 3800 nM
CN1CCC2(CC1)c1ccccc1N(Cc1ccc(C(=O)NO)s1)C2c1cccc(Cl)c1 (stereo not shown) | Histone deacetylase 8 (Schistosoma mansoni, UniProt A5H660) | enzyme activity, inhibitor, Fluor-de-Lys |  | with: Fluor-de-Lys substrate 50 µM | 680 ± 80 nM

Structure (SMILES) | target | assay | test system | setting | IC50
CC(C)NCc1ccc(C[C@@H]2NC(=O)[C@@H](N(C)C(=O)c3ccc4ccccc4c3)NC(=O)[C@H](Cc3ccccc3)NC(=O)[C@@H](N)CSSC[C@@H](C(N)=O)NC(=O)[C@H](Cc3ccc(O)cc3)NC2=O)cc1 | SSTR3 (Homo sapiens, UniProt P32745) | ligand displacement, radioligand |  | cell membranes | 317 nM and 381 nM
O=C(CSc1nc2ccccc2c(=O)n1-c1ccccc1)Nc1ccc(S(=O)(=O)NC(=O)Nc2ccccc2)cc1 | PARP1 | enzyme activity, inhibitor, absorbance |  |  | 130 nM
Cc1nc2ccc(NC(=O)CCNC(=O)CCCc3ccc(CC(C(=O)O)C(=O)O)cc3)cc2s1 | LDHB | inhibitor, NADH fluorescence |  | pyruvate competition, with: 150 µM NADH, 200 µM pyruvate | 5000 ± 800 nM
Cn1cnc2c(NCc3ccc(CNCCCNC4CCCCC4)cc3)nc(N3CCNCC3)nc21 | CXCR4 | ligand displacement, radioligand |  | cell membranes | 86.2 nM
C[C@@H]1CC[C@]2(C(=O)O)CC[C@]3(C)C(=CC[C@@H]4[C@@]5(C)[C@H](O)C(=O)[C@H](O)C(C)(C)[C@@H]5CC[C@]43C)[C@@H]2[C@]1(C)O | AMY2 (Sus scrofa, UniProt P00690) | enzyme activity, inhibitor, absorbance |  |  | 130000 nM
CC(C)CCCCC/C=C/C=C/C(=O)N[C@H](C(=O)N[C@H]1C[C@@H](O)CCNC(=O)/C=C/[C@H](C)NC1=O)[C@@H](C)O | PSMB5 | probe labelling, inhibitor, in situ competitive profiling | RPMI-8226 | 6 h | 7.5 nM
O=c1c(O)c(-c2ccc(O)c(O)c2)oc2cc(O)cc(O)c12 | CDC7 with DBF4 | enzyme activity, inhibitor, ADP-Glo luminescence |  | with: ATP 12.5 µM | 59700 ± 28600 nM
CC(=O)n1c(=O)[nH]c2ccccc21 | mbtI (Mycobacterium tuberculosis, UniProt P9WFX1) | enzyme activity, inhibitor, continuous fluorescence |  | with: chorismate | > 200000 nM
COc1cccc(Cn2cc(COC(=O)NCc3cn(Cc4ccccc4OC)nn3)nn2)c1 | FAAH | enzyme activity, inhibitor, fluorescence |  | cell membranes | 39.1 nM
O=C(O[C@@H]1Cc2c(O)cc(O)cc2O[C@@H]1c1ccc(O)c(O)c1)c1cc(O)c(O)c(O)c1 | CDC7 with DBF4 | enzyme activity, inhibitor, ADP-Glo luminescence |  | with: ATP 12.5 µM | 33700 ± 7550 nM
NC(=O)c1cccc2c1OC(c1ccccc1)C(=O)N2 (stereo not shown) | PARP1 |  |  |  | ~2500 nM
Cc1ccccc1C(C(=O)NC1CCCCC1)N(C(=O)Cn1ccnc1C)c1cccc(F)c1 (stereo not shown) [fluorine-18 labelled] | IDH1 (Homo sapiens, UniProt O75874, R132H) | enzyme activity, inhibitor |  | racemic compound, with: α-ketoglutarate | < 50 nM
O=C(CSc1nc2ccccc2c(=O)n1-c1ccccc1)Nc1ccc(C(=O)C=Cc2ccc([N+](=O)[O-])cc2)cc1 | PARP1 | enzyme activity, inhibitor, absorbance |  |  | 311 nM
O=C(NCC1CC1)c1cc(N2CC[C@H](O)C2)nc(N2CCC[C@@H](c3ccccc3)C2)n1 | N-acyl-phosphatidylethanolamine-hydrolyzing phospholipase D (Homo sapiens, UniProt Q6IQ20) | photoprobe labeling | HEK-293T, NAPE-PLD transfected | 30 min, with: photoprobe 2 µM | 860 nM
N#Cc1ccc(OCC2=C(C(F)F)C(=O)c3ccccc3C2=O)cc1 | TXNRD1 (Homo sapiens, UniProt Q16881) | enzyme activity, inhibitor |  | pH 7.4, with preincubation | 13 nM
COc1ccc([C@H](CC(=O)O)N2CCN(CCCc3ccc4c(n3)NCCC4)C2=O)cn1 | Integrin alpha-V/beta-5 (Homo sapiens, UniProt P06756+P18084) | vitronectin binding, inhibitor, ELISA |  |  | 0.1 ± 0.1 nM
CCC(C)Oc1nc(N)nc(N)c1C#N (stereo not shown) | PIK3CB (Homo sapiens, UniProt P42338) | enzyme activity, inhibitor |  |  | > 20000 nM
CC1(C)S[C@@H]2[C@H](/N=C/N3CCCCCC3)C(=O)N2[C@H]1C(=O)O | mrcB (Pseudomonas aeruginosa, UniProt G3XD31) | ligand displacement, fluorescence |  | cell membranes | > 39900 nM
O=S(=O)(O)c1cc(N=C=S)ccc1C=Cc1ccc(N=C=S)cc1S(=O)(=O)O | PABPN1 (Homo sapiens, UniProt Q86U42) | inhibitor, AlphaScreen counterscreen |  |  | 11300 nM and ~11000 nM
O=c1c2ccccc2nc(NN=Cc2ccc([N+](=O)[O-])cc2)n1-c1ccccc1 | PARP1 | enzyme activity, inhibitor, absorbance |  |  | 484 nM
COC(=O)c1ccc(-c2ccc3c(c2)[nH]c2ccncc23)cn1 | MAPT (Homo sapiens, UniProt P10636) | ligand displacement, radioligand |  |  | > 10000 nM
O=c1cc(N2CCOCC2)oc2c(OCc3cccnc3)cccc12 | PIK3CB (Homo sapiens, UniProt P42338, E858H) | enzyme activity, inhibitor |  |  | 1160 nM
O=C(NCc1ccc(F)cc1)C1CCN(S(=O)(=O)c2cc(Cl)cc(Cl)c2)CC1 | Na(+)/citrate cotransporter (Homo sapiens, UniProt Q86YT5) | citrate uptake, inhibitor | HepG2 | 30 min preincubation, washout before uptake, with: Li+ | 82 ± 10 nM

For quick reference, copied from above:
Structure (SMILES) | target | assay | test system | setting | IC50
NC(=O)c1cc(N)cc2c1OCCO2 | PARP1 |  |  |  | > 5000 nM
O=S(=O)(O)c1cc(N=C=S)ccc1C=Cc1ccc(N=C=S)cc1S(=O)(=O)O | PABPN1 (Homo sapiens, UniProt Q86U42) | inhibitor, AlphaScreen counterscreen |  |  | 11300 nM and ~11000 nM
N#Cc1ccc(OCC2=C(C(F)F)C(=O)c3ccccc3C2=O)cc1 | TXNRD1 (Homo sapiens, UniProt Q16881) | enzyme activity, inhibitor |  | pH 7.4, with preincubation | 13 nM
O=C(CSc1nc2ccccc2c(=O)n1-c1ccccc1)Nc1ccc(S(=O)(=O)NC(=O)Nc2ccccc2)cc1 | PARP1 | enzyme activity, inhibitor, absorbance |  |  | 130 nM
CC(C)CCCCC/C=C/C=C/C(=O)N[C@H](C(=O)N[C@H]1C[C@@H](O)CCNC(=O)/C=C/[C@H](C)NC1=O)[C@@H](C)O | PSMB5 | probe labelling, inhibitor, in situ competitive profiling | RPMI-8226 | 6 h | 7.5 nM
COc1cccc(Cn2cc(COC(=O)NCc3cn(Cc4ccccc4OC)nn3)nn2)c1 | FAAH | enzyme activity, inhibitor, fluorescence |  | cell membranes | 39.1 nM
COC(=O)c1ccc(-c2ccc3c(c2)[nH]c2ccncc23)cn1 | MAPT (Homo sapiens, UniProt P10636) | ligand displacement, radioligand |  |  | > 10000 nM
